{"data": "Measurements collected from several papers", "note": "Compare with care: the assays were run in different laboratories. “And” joins repeats or separate records; there may be more than shown."}
{"SMILES": "CNC(=O)C[C@H](Cc1ccncc1)NC(=O)[C@@H](Cc1cccc(Br)c1)NC(=O)[C@@H](N)Cc1cccc(F)c1", "cell line": "Huh-7-ACE2", "test": "CellTiter-Glo", "conditions": "0.391 µM, 48 h, unit not given", "how to read": "baseline: DMSO", "endpoint": "viability", "result": "1.01 and 1.05 and 0.983"}
{"SMILES": "CCCCCCCCCCCCCC(=O)N[C@H]1C(=O)N[C@@H](CN)C(=O)N[C@@H](CO)C(=O)N[C@@H](Cc2ccc(O)cc2)C(=O)O[C@H]1C", "cell line": "HEK293", "test": "MTT", "conditions": "3.2 mg", "endpoint": "survival", "result": "98%"}
{"SMILES": "CNC(=O)C[C@H](Cc1ccncc1)NC(=O)[C@@H](Cc1cccc(Br)c1)NC(=O)[C@@H](N)Cc1ccsc1", "cell line": "Huh-7-ACE2", "test": "CellTiter-Glo", "conditions": "6.25 µM, 48 h, unit not given", "how to read": "baseline: DMSO", "endpoint": "viability", "result": "1.04 and 0.927 and 0.902"}
{"SMILES": "CCCCN(C=O)c1c(CC)nc2ccc(C(=O)N(C)Cc3ccco3)cn12", "cell line": "SH-SY5Y", "test": "sulforhodamine B", "conditions": "100 µM, 72 h", "endpoint": "cell density reduction", "result": "65.9%"}
{"SMILES": "CCOc1ccc(CN2CC[C@H]2C(=O)NC)cc1-c1cccc(C(=O)NC[C@@H]2COC(C)(C)O2)c1", "cell line": "Huh-7-ACE2", "test": "CellTiter-Glo", "conditions": "0.391 µM, 48 h, unit not given", "how to read": "baseline: DMSO", "endpoint": "viability", "result": "0.933 and 0.906 and 0.936"}
{"SMILES": "O=C(N[C@H](Cc1ccc(-c2ccccc2)cc1)C(=O)NCCNc1ccc([N+](=O)[O-])c2nonc12)c1ccc(-c2ccc(OP(=O)(O)O)cc2)cc1", "cell line": "PC-3", "test": "fluorescence imaging", "conditions": "50 µM", "endpoint": "time to cellular uptake", "result": "≤ 5 min"}
{"SMILES": "NC(=S)N/N=C/c1ccc(OCc2cccc(F)c2)cc1", "cell line": "IMR-32", "test": "MTT", "conditions": "100 µg/mL, 24 h", "how to read": "baseline: untreated control", "endpoint": "viability", "result": "76.3%"}
{"SMILES": "CCCCCCCCCCCC1CC(=O)N[C@@H](CO)C(=O)N[C@H](CO)C(=O)N[C@H](C)C(=O)N(C)[C@@H](C(C)C)C(=O)N[C@H](CO)C(=O)N[C@H](CCCCN)C(=O)N[C@H](CO)C(=O)N[C@@H](CCCCN)C(=O)O1 (some centres unmarked)", "cell line": "HEK293", "test": "MTT", "conditions": "32 mg", "endpoint": "survival", "result": "92.9%"}
{"SMILES": "O=C(Nc1cccnc1)c1cccc(C2(CNCc3ccc(F)c(F)c3)CC2)c1", "cell line": "SH-SY5Y", "test": "sulforhodamine B", "conditions": "100 µM, 72 h, cytotoxicity", "endpoint": "cell density", "result": "> 100%"}
{"SMILES": "CN(C)CCCNC(=O)[C@@H]1NC(=O)[C@@H]2Cc3ccc(cc3)Oc3cc4cc(c3O)-c3ccc5c(c[nH]c5c3)C[C@@H](NC(=O)C(NC(=O)CCCCCN)c3ccc(O)cc3)C(=O)N[C@H](c3ccc(O)cc3)C(=O)N[C@H]4C(=O)N[C@@H](C(=O)N2C)c2ccc(cc2)Oc2cc1ccc2O (some centres unmarked)", "cell line": "human red blood cells", "system": "PBS", "conditions": "32 µg/mL, 1 h, pH 7.4, 37 °C", "endpoint": "hemolysis", "result": "0.95% and 0%"}
{"SMILES": "C#Cc1ccc(N2CCOCC2)c(/C=N/NC(=O)CCl)c1", "cell line": "THLE-2", "test": "cell growth or viability, ATP luminescence", "conditions": "24 h", "endpoint": "IC50", "result": "72.9 µM"}
{"SMILES": "CC(=O)NCC(=O)N[C@@H](CCCNC(=N)N)C(=O)N[C@@H](CCCCN)C(=O)N[C@@H](CCCCN)C(=O)N[C@@H](CCCNC(=N)N)C(=O)N[C@@H](CCCNC(=N)N)C(=O)N[C@@H](CCC(N)=O)C(=O)N[C@@H](CCCNC(=N)N)C(=O)N[C@@H](CCCNC(=N)N)C(=O)N[C@@H](CCCNC(=N)N)C(=O)N1CCC[C@H]1C(=O)N[C@@H](CCC(N)=O)C(N)=O", "cell line": "HEK293T", "test": "subcellular fractionation LC-MS", "system": "cytoplasm", "conditions": "20 µM, 24 h", "endpoint": "cytoplasmic peptide amount", "result": "0.0504 nmol and 0.0514 nmol and 0.0528 nmol"}
{"SMILES": "CN1CCN(c2ccc(Nc3cc4[nH]c(-c5cccc(F)c5)cc4cn3)cc2)CC1", "cell line": "SH-SY5Y", "test": "sulforhodamine B", "conditions": "concentration not given", "endpoint": "cytotoxicity", "result": "toxic"}
{"SMILES": "CNC(=O)CC1CN(C(=O)c2ccc(C(F)(F)F)cn2)CCN1C(=O)c1cccnn1 (centres unmarked)", "cell line": "Huh-7-ACE2", "test": "CellTiter-Glo", "conditions": "0.391 µM, 48 h, unit not given", "how to read": "baseline: DMSO", "endpoint": "viability", "result": "1.13 and 1.06 and 1.08"}
{"SMILES": "CC1CCC(C(C)(C)C(=O)Nc2ccc(Oc3ccccc3)cc2)CC1 (centres unmarked)", "cell line": "HEK293T", "test": "cytotoxicity", "conditions": "3 days", "endpoint": "IC50", "result": "15.4 µM"}
{"SMILES": "CNC(=O)CC[C@H](Cc1ccccc1)NC(=O)[C@@H](Cc1ccc(Cl)cc1Cl)NC(=O)[C@H](N)Cc1ccccc1[N+](=O)[O-]", "cell line": "Huh-7-ACE2", "test": "CellTiter-Glo", "conditions": "0.0977 µM, 48 h, unit not given", "how to read": "baseline: DMSO", "endpoint": "viability", "result": "0.928 and 0.865 and 0.913"}
{"SMILES": "CCN(CC)CCCC[C@H](NC(=O)[C@H](CC(C)C)NC(=O)[C@H](C)N(C)C(=O)[C@H](Cc1ccccc1)NC(=O)c1ccc(C(C)(C)C)cc1)C(=O)N[C@@H](CO)C(=O)OC", "cell line": "PC-3", "test": "CellTiter-Glo", "conditions": "up to 100 µM, 48 h", "endpoint": "cytotoxicity", "result": "not toxic"}
{"SMILES": "CNC(=S)N/N=C/c1ccc(OCc2ccccc2)cc1", "cell line": "IMR-32", "test": "MTT", "conditions": "50 µg/mL, 24 h", "how to read": "baseline: untreated control", "endpoint": "viability", "result": "97.3%"}
{"SMILES": "CNC(=O)C[C@H](Cc1ccc(F)cc1)NC(=O)[C@@H](Cc1ccc(Cl)cc1Cl)NC(=O)[C@H](N)Cc1ccccc1C#N", "cell line": "Huh-7-ACE2", "test": "CellTiter-Glo", "conditions": "0.0488 µM, 48 h, unit not given", "how to read": "baseline: DMSO", "endpoint": "viability", "result": "0.912 and 0.97 and 0.896"}
{"SMILES": "CC[C@H](C)[C@@H]1NC(=O)[C@H](C)NC(=O)[C@@H](NC(=O)[C@H](CC(C)C)NC(=O)[C@@H](NC(=O)[C@H](CCCCN)NC(=O)[C@H](CCCNC(=N)N)NC(=O)[C@@H]2CCCN2C(=O)[C@H](CC(C)C)NC(=O)CN)[C@@H](C)CC)CSSC[C@@H]2NC(=O)[C@H](C(C)C)NC(=O)[C@H](CC(C)C)NC(=O)[C@H](CCCCN)NC(=O)[C@H](CC(C)C)NC(=O)[C@@H]3CCCN3C(=O)CNC(=O)[C@H](CCCCN)NC(=O)[C@H](CSSC[C@@H](C(N)=O)NC(=O)[C@H](CCCCN)NC2=O)NC(=O)[C@H](CCCCN)NC(=O)CNC(=O)[C@H](CCCCN)NC(=O)[C@H](CCCCN)NC(=O)[C@H](CCCCN)NC(=O)[C@H](C)NC1=O", "cell line": "RAW264.7 cells", "conditions": "8 µM, 4 h", "endpoint": "viability reduction", "result": "> 50%"}
{"note": "Excerpt of the above:"}
{"SMILES": "CCCCN(C=O)c1c(CC)nc2ccc(C(=O)N(C)Cc3ccco3)cn12", "cell line": "SH-SY5Y", "test": "sulforhodamine B", "conditions": "100 µM, 72 h", "endpoint": "cell density reduction", "result": "65.9%"}
{"SMILES": "CC(=O)NCC(=O)N[C@@H](CCCNC(=N)N)C(=O)N[C@@H](CCCCN)C(=O)N[C@@H](CCCCN)C(=O)N[C@@H](CCCNC(=N)N)C(=O)N[C@@H](CCCNC(=N)N)C(=O)N[C@@H](CCC(N)=O)C(=O)N[C@@H](CCCNC(=N)N)C(=O)N[C@@H](CCCNC(=N)N)C(=O)N[C@@H](CCCNC(=N)N)C(=O)N1CCC[C@H]1C(=O)N[C@@H](CCC(N)=O)C(N)=O", "cell line": "HEK293T", "test": "subcellular fractionation LC-MS", "system": "cytoplasm", "conditions": "20 µM, 24 h", "endpoint": "cytoplasmic peptide amount", "result": "0.0504 nmol and 0.0514 nmol and 0.0528 nmol"}
{"SMILES": "CCOc1ccc(CN2CC[C@H]2C(=O)NC)cc1-c1cccc(C(=O)NC[C@@H]2COC(C)(C)O2)c1", "cell line": "Huh-7-ACE2", "test": "CellTiter-Glo", "conditions": "0.391 µM, 48 h, unit not given", "how to read": "baseline: DMSO", "endpoint": "viability", "result": "0.933 and 0.906 and 0.936"}
